Experimental data pooled from the literature.
Each line is one published result; not all experiments were run side by side. ± marks the error that the study gave.

`CCCC[C@H]1C(=O)N(C)[C@@H](CCCC)C(=O)N[C@@H](CCCNC(=O)CN2CCN(CC(=O)O)CCN(CC(=O)O)CCN(CC(=O)O)CC2)C(=O)N[C@H](C(=O)NCC(N)=O)CSCC(=O)N[C@@H](Cc2ccc(O)cc2)C(=O)N(C)[C@@H](C)C(=O)N[C@@H](CC(N)=O)C(=O)N2CCC[C@H]2C(=O)N[C@@H](Cc2c[nH]cn2)C(=O)N[C@@H](CC(C)C)C(=O)N(C)CC(=O)N[C@@H](Cc2c[nH]c3ccccc23)C(=O)N[C@@H](CO)C(=O)N[C@@H](Cc2c[nH]c3ccccc23)C(=O)N1C` [gallium-68 labelled] has a tissue uptake of 4.07 ± 0.42 %ID/g (NOD/SCID mice, CHO-hPD-L1 xenograft, bone; 60 min, with: blocking agent 50 µg co-injected).
`CC[C@H](C)[C@H](NC(=O)[C@@H](Cc1c[nH]c2ccccc12)NC(=O)[C@@H]1CCCN1C(=O)[C@H](CCCCN)NC(=O)[C@H](CCCCN)NC(=O)CCNC(=O)CCNC(=O)CN1CCN(CC(=O)O)CCN(CC(=O)O)CCN(CC(=O)O)CC1)C(=O)N[C@@H](C[Si](C)(C)C)C(=O)O` [gallium-68 labelled] has a tissue uptake of 0.05 ± 0.01 %ID/g (ex vivo biodistribution; nude mice, HT-29 xenograft, brain; 90 min, with: levocabastine 0.5 µmol).
`CC[C@H](C)[C@H](NC(=O)[C@H](CCCCN)NC(=O)CNC(=O)[C@H](CC(C)C)NC(=O)[C@H](Cc1ccccc1)NC(=O)[C@H](CCCCN)NC(=O)[C@H](CO)NC(=O)[C@H](Cc1ccccc1)NC(=O)[C@H](Cc1c[nH]c2ccccc12)NC(=O)[C@H](CCC(N)=O)NC(=O)[C@@H](NC(=O)[C@H](Cc1ccccc1)NC(=O)CCCCCNC(=O)CN1CCN(CC(=O)O)CCN(CC(=O)O)CCN(CC(=O)O)CC1)C(C)C)C(=O)N[C@@H](CCC(=O)O)C(=O)N1CCC[C@H]1C(=O)N[C@@H](CC(=O)O)C(=O)N[C@H](C(=O)N[C@@H](CO)C(=O)N[C@@H](CCC(N)=O)C(=O)N[C@H](C(=O)N[C@@H](CCC(N)=O)C(=O)N[C@@H](CC(=O)O)C(=O)N1CCC[C@H]1C(=O)N[C@@H](CC(N)=O)C(=O)N[C@@H](CC(=O)O)C(=O)N[C@@H](CCC(N)=O)C(=O)N[C@@H](Cc1ccc(O)cc1)C(=O)N[C@@H](CCC(=O)O)C(=O)N1CCC[C@H]1C(=O)N[C@@H](Cc1ccccc1)C(=O)O)C(C)C)C(C)C` [copper-64 labelled] gave a tissue uptake of 0.3 ± 0.04 %ID/g (C57BL/6 mice, male, naive, white fat; 4 h).
`CC[C@H](C)[C@H](NC(=O)[C@H](CCCNC(=N)N)NC(=O)[C@H](CCCCN)NC(=O)[C@H](Cc1ccc(O)cc1)NC(=O)[C@H](CC(=O)O)NC(=O)[C@H](C)NC(=O)CNC(=O)CCOCCOCCOCCNC(=O)CN1CCN(CC(=O)O)CCN(CC(=O)O)CCN(CC(=O)O)CC1)C(=O)N[C@H](C(=O)N[C@@H](CC(C)C)C(=O)N[C@@H](CCCCN)C(=O)N[C@H](C(=O)N[C@@H](CC(N)=O)C(N)=O)C(C)C)[C@@H](C)O` [copper-64 labelled] gave a tissue uptake of 0.698 ± 0.059 %ID/g (ex vivo gamma counting; C57BL/6J male mice, B16-F10 tumour, testis; intravenous, 1.85 MBq, 40 min).
For `CSCC[C@H](NC(=O)CNC(=O)[C@H](CCCCN)NC(=O)[C@H](CC(C)C)NC(=O)[C@@H]1CCCN1C(=O)[C@H](CO)NC(=O)[C@H](Cc1c[nH]cn1)NC(=O)[C@H](Cc1c[nH]c2ccccc12)NC(=O)[C@H](CCCNC(=N)N)NC(=O)[C@H](CC(C)C)NC(=O)[C@H](CCCNC(=N)N)NC(=O)[C@H](Cc1c[nH]c2ccccc12)NC(=O)[C@H](CS)NC(=O)CCCCCNC(=O)CN1CCN(CC(=O)O)CCN(CC(=O)O)CCN(CC(=O)O)CC1)C(=O)O` [copper-64 labelled], the tissue uptake was 1.08 %ID/g (ex vivo biodistribution; BALB/c nude mice, ovaries; intravenous, dose not given, 18 h, Huh-7 tumour-bearing).
The tissue uptake of `CC(C)C[C@@H](NC(=O)[C@@H](CCCNC(=N)N)NC(=O)[C@@H](Cc1c[nH]cn1)NC(=O)[C@@H](Cc1c[nH]c2ccccc12)NC(=O)[C@@H](Cc1c[nH]cn1)NC(=O)[C@@H](Cc1ccccc1)NC(=O)[C@H](NC(=O)[C@@H](Cc1ccc(O)cc1)NC(=O)CNC(=O)CNC(=O)CCOCCOCCOCCNC(=O)CN1CCN(CC(=O)O)CCN(CC(=O)O)CC1)[C@H](C)O)C(=O)N[C@H](CC(N)=O)C(=O)N1CCC[C@@H]1C(=O)O` [gallium-68 labelled] is reported as 0.67 ± 0.1 %ID/g (gamma counting; C57BL/6 mice, male, lung; intravenous, 1.85 MBq, 120 min).
The tissue uptake of `CC[C@H](C)[C@H](NC(=O)[C@H](CCCNC(=N)N)NC(=O)[C@H](CCCCN)NC(=O)[C@H](Cc1ccc(O)cc1)NC(=O)[C@H](CC(=O)O)NC(=O)[C@H](C)NC(=O)CNC(=O)CCOCCOCCOCCNC(=O)CN1CCN(CC(=O)O)CCN(CC(=O)O)CCN(CC(=O)O)CC1)C(=O)N[C@H](C(=O)N[C@H](C(=O)N[C@@H](CCCCN)C(=O)N[C@H](C(=O)N[C@@H](CC(N)=O)C(N)=O)C(C)C)C(C)C)[C@@H](C)O` [copper-64 labelled] is reported as 1.8 ± 0.059 %ID/g (ex vivo gamma counting; C57BL/6J male mice, B16-F10 tumour, stomach; intravenous, 1.85 MBq, 100 min).
For `C[C@H](O)[C@@H](NC(=O)[C@H]1CCCN1C(=O)[C@@H](CCCCN)NC(=O)[C@@H](CO)NC(=O)[C@@H](Cc1ccc(O)cc1)NC(=O)[C@@H](CC(N)=O)NC(=O)CCOCCOCCOCCNC(=O)CN1CCN(CC(=O)O)CCN(CC(=O)O)CCN(CC(=O)O)CC1)C(=O)N[C@H](CC(=O)O)C(=O)N[C@H](CCCNC(=N)N)C(=O)N[C@H](CCC(N)=O)C(=O)N[C@H](Cc1ccc(O)cc1)C(=O)N[C@H](Cc1c[nH]cn1)C(=O)N[C@H](Cc1ccccc1)C(N)=O` [gallium-68 labelled], the tissue uptake was 1.64 ± 0.42 %ID/g (BALB/c nude mice U-87 MG tumour, lung; intravenous, 1.85 MBq, 0.08333 h, radiolabelled).

For quick reference, copied from above:
The tissue uptake of `CC(C)C[C@@H](NC(=O)[C@@H](CCCNC(=N)N)NC(=O)[C@@H](Cc1c[nH]cn1)NC(=O)[C@@H](Cc1c[nH]c2ccccc12)NC(=O)[C@@H](Cc1c[nH]cn1)NC(=O)[C@@H](Cc1ccccc1)NC(=O)[C@H](NC(=O)[C@@H](Cc1ccc(O)cc1)NC(=O)CNC(=O)CNC(=O)CCOCCOCCOCCNC(=O)CN1CCN(CC(=O)O)CCN(CC(=O)O)CC1)[C@H](C)O)C(=O)N[C@H](CC(N)=O)C(=O)N1CCC[C@@H]1C(=O)O` [gallium-68 labelled] is reported as 0.67 ± 0.1 %ID/g (gamma counting; C57BL/6 mice, male, lung; intravenous, 1.85 MBq, 120 min).
